Measured values from different studies.
Numbered parts are unrelated; each lists some results of a single study.

Sample 1
Target: RNA binding protein fox-1 homolog 2, RRM domain, GST-SBP tag (RBFOX2, Homo sapiens, UniProt O43251-10, residues 100-194)
Technique: RNA Bind-n-Seq
Molecule type: RNA
Matrix: in vitro
Concentration: 365 nM
Notes: natural RNA segment, single round, ends assumed
Relative to: no-protein control
Direction: higher = stronger binding
Quantity: RBNS enrichment (R)
Residues (chain): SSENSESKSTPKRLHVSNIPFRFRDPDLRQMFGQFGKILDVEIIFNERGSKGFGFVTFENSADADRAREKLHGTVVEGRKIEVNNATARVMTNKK
GGGAGUUCUACAGUCCGACGAUCGAUGGUGUCACCUAUGGGUUUUGAACCAGUGUGGUAUGGUCCUUGGGAGCUCUGCUCUGAGCUUGCCACACUGCUGAGAGCACCCACUGUCCUGACCAGAGUCUCAGUGGUGGAAUUCUCGGGUGCCAA: 0.291
GGGAGUUCUACAGUCCGACGAUCCCACGCCCGGCUAAUUUUUAUAUUUUUGGUAGAGAUGGGGUUUCACCAUGCUGGCCAGGCUGGUCUCGAACUCCUGACCUCAGGUGAUCCCCCCCACCUCAGCCUCCCAAUGGAAUUCUCGGGUGCCAA: 0.259
GGGAGUUCUACAGUCCGACGAUCACCUGGGCCACUCAGAGACCUCAGUGGGACUGGGAGAGUGGAGGGAACUACAUCAGCGCCCACACUGGACCACAGACGGAGGCAGAUGAGGGCUCCAAGGCCGGAAGUCCUGGAAUUCUCGGGUGCCAA: 0.22
GGGAGUUCUACAGUCCGACGAUCCAAAGUGGCCAAACUUUUCAACUGUAAUUUUAUAAAUGAUACUACACUGAUAUAGCCAAUUAGAUUUAAAAUGUCUUCAAAAAUUACUUUAUUUUAUUUAAAGCAUCUGUUGGAAUUCUCGGGUGCCAA: 0.438

Sample 2
Target: Phosphate system positive regulatory protein PHO4, full length, GST-tagged (PHO4, Saccharomyces cerevisiae, UniProt P07270, residues 1-312)
Technique: competition protein-binding microarray
Molecule type: double-stranded DNA, one strand shown
Matrix: in vitro
Concentration: 2 µM
Notes: whole 60-bp probe, lowest competitor level
Together with: Cbf1 competitor, 0.05 µM
Direction: higher = stronger binding
Quantity: fluorescence intensity
Construct (chain): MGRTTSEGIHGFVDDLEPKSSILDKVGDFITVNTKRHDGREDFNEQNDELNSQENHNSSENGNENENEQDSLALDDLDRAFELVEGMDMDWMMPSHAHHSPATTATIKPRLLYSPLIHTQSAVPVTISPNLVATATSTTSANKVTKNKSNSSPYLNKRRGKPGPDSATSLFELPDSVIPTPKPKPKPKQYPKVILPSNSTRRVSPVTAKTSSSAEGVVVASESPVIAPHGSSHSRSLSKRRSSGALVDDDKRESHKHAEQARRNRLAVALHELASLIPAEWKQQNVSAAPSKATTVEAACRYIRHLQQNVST
AGTATCCTCGACCTACACGTCTTCACCATCGGCACCGTCTTGATTCGCTTGACGCTGCTG: 5560 a.u.
CTTCTGTAAATTTGTCACGAAACTTGACGCGCCCCGGTCTTGATTCGCTTGACGCTGCTG: 3430 a.u.
CTGAACCGTCTTCGTCACGCTAGAGTTACTAGAAGAGTCTTGATTCGCTTGACGCTGCTG: 4070 a.u.
AGAAAATCATATCACCACGTGGACCTCTCAAAGACTGTCTTGATTCGCTTGACGCTGCTG: 20500 a.u.

Sample 3
Target: Prothrombin, mature alpha-thrombin (F2, Homo sapiens, UniProt P00734)
Technique: aptamer microarray, sandwich
Molecule type: DNA with 2'F-ANA
Matrix: in vitro
Concentration: 200 nM
Notes: whole 15-mer aptamer, many near background
Together with: Cy3 exosite-II aptamer, 400 nM
Direction: higher = stronger binding
Quantity: mean fluorescence intensity
GGTTGGTGTGGTTGG (2'F-ANA at 4 5 7 9 10 12 13 15): 47.2 a.u.
GGTTGGTGTGGTTGG (2'F-ANA at 1 2 4 5 7 12 13 15): 73.9 a.u.
GGTTGGTGTGGTTGG (2'F-ANA at 1 2 8 10 14): 47.5 a.u.
GGTTGGTGTGGTTGG (2'F-ANA at 2 5 6 7 10 14 15): 49.5 a.u.

Other studies, line by line
PhoQ, residues 284 288 289 292 302 303 QWGLFV
fold induction (PhoP, residues 12 14 15 18 19 VQALL (Escherichia coli, UniProt P23836); Sort-seq, measured: YFP reporter; E. coli; PhoQ-PhoP variant library, together with: 10 µM Mg2+; relative to: high Mg2+ state, higher = stronger signaling): 6.4

Some of these lines once more (sample 2):
AGTATCCTCGACCTACACGTCTTCACCATCGGCACCGTCTTGATTCGCTTGACGCTGCTG: 5560 a.u.
